Published values collected from several papers.
Numbered parts are unrelated; each lists some results of a single study. Changes are numbered by the printed parent chain.

Sample 1
Target: CCNB3, cyclin fold, Cln2 fusion (human)
Technique: yeast growth competition, sequencing
Medium: yeast
Notes: weak parent motif
Baseline: not given
Reading: higher = stronger binding
Starting sequence: DOT1L docking peptide (human); SEAKRRIVFTITT; partner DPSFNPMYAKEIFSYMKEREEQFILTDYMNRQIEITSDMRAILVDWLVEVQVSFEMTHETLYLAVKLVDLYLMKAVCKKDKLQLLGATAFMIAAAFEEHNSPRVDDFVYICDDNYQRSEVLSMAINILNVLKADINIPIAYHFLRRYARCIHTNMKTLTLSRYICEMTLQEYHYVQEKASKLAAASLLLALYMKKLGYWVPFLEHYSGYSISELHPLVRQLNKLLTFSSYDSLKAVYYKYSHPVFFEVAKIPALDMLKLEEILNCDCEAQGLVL
Substitution | normalised enrichment score
SEAKRAIVFTITT [R6A] | 0.0841
SEAKRRIAFTITT [V8A] | 0.431
SEAKARIVFTITT [R5A] | -0.0725
SEAKRRIVFTATT [I11A] | 0.249
SEAKRRIVFAITT [T10A] | 0.0613
SEAARRIVFTITT [K4A] | 0.233

Sample 2
Target: NFE2L3, bZIP domain (human)
Technique: DHFR protein complementation
Medium: yeast
Notes: single substitutions, most at no-binding floor
Baseline: wild-type JUN-FOS pair
Reading: higher = stronger binding
Starting sequence: JUN, bZIP domain (human); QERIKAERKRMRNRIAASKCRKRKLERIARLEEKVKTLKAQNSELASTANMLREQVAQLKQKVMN; partner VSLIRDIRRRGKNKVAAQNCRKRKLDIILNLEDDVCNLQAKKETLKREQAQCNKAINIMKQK
Substitution | binding fitness
K39F | -1.54 natural log
K36H | -1.2 natural log
V56K | -1.48 natural log
S47T | -1.31 natural log
T48L | -1.51 natural log
A49L | -1.33 natural log
E32T | -1.57 natural log
L45M | -1.58 natural log
A29W | -1.37 natural log
E33A | -1.43 natural log
R53N | -1.42 natural log
A40W | -1.5 natural log
A40C | -1.32 natural log
L31W | -1.49 natural log
V35Q | -1.48 natural log
L52G | -1.44 natural log
A29M | -1.44 natural log
K36P | -1.53 natural log
E54W | -1.54 natural log
E54D | -1.54 natural log

Sample 3
Target: Interferon regulatory factor 5, full length, phosphomimetic (IRF5, Homo sapiens, UniProt Q13568-2, residues 1-514, K96S/S451D/S453D/S456D/S462D)
Technique: protein-binding microarray
Molecule type: double-stranded DNA, one strand shown
Medium: in vitro
Tested at: 250 nM
Notes: 60-bp whole probe
With: salmon DNA 0.4 mg/ml
Baseline: random background probes
Reading: higher = stronger binding
All sequences stand within: GCCTAGCAC … GTCTTGATTCGCTTGACGCTGCTG
Strand | log fluorescence
TTTGCTTTCCTTTGCTTTCTGTGCTAG | 2.78 z-score
TTATGACTGGGGACTGGGTTAGTGCTA | -0.0872 z-score
TCATCTTTCACTGCTCCCACTGTGCTA | 2.92 z-score
GTAAGCAAAAATGATTGGTTGTGCTAG | 0.133 z-score
TCTATTTTCTGAATGTCTTCGTGCTAG | 1.85 z-score
GACGATCTGAGTCTCGAGACGTGCTAG | -0.263 z-score
AACGAACTGAGTTTCGAGACGTGCTAG | 4.61 z-score
GACGGTATCGACATTGGGGACGTGCTA | 1.83 z-score
TGCCATATTTATCTGCAAAGGTGCTAG | 0.326 z-score
TTAGGTATCGGTATCGGCTAGTGCTAG | 8.07 z-score
GACGATTTCGGGTATCGAGACGTGCTA | 4.84 z-score
TCTCTGCTACCCTCTGAAAGTGTGCTA | 0.701 z-score
GACGGACTAGGTATCGGGACGTGCTAG | 0.468 z-score
GACGGATTGGGGACTGGGGACGTGCTA | -0.542 z-score
TTAGGTATCGACACTGGTTTAGTGCTA | 2.75 z-score
CAAGTTACCCACCTCAGGTAGTGCTAG | 0.0147 z-score
TTCTGATCCATTTTGGTTTTGTGCTAG | 0.774 z-score
TCAATTATTGTCTTCCCACTGTGCTAG | 0.684 z-score
TCAGTACTTTCTATCTCACTGTGCTAG | 4.91 z-score
GACGGTCTTGGTTTCGGGACGTGCTAG | 3.38 z-score
TGTCATTTACATTTTAGTAGGTGCTAG | 0.678 z-score
TCAGTTTTCTCTATTGCACTGTGCTAG | 1.82 z-score
GAAGGTCTCCTTTTCCTGACGTGCTAG | -0.0648 z-score
TTAGTTTTCGGGACTGGATTAGTGCTA | 4.18 z-score

Sample 4
Target: Sal-like protein 4, full length isoform B (SALL4, Homo sapiens, UniProt Q9UJQ4-2, residues 1-616)
Technique: universal PBM
Molecule type: double-stranded DNA, one strand shown
Medium: in vitro
Tested at: not given
Notes: 8-mer, flanks averaged, mean of replicates
Reading: higher = stronger binding
Target sequence (chain): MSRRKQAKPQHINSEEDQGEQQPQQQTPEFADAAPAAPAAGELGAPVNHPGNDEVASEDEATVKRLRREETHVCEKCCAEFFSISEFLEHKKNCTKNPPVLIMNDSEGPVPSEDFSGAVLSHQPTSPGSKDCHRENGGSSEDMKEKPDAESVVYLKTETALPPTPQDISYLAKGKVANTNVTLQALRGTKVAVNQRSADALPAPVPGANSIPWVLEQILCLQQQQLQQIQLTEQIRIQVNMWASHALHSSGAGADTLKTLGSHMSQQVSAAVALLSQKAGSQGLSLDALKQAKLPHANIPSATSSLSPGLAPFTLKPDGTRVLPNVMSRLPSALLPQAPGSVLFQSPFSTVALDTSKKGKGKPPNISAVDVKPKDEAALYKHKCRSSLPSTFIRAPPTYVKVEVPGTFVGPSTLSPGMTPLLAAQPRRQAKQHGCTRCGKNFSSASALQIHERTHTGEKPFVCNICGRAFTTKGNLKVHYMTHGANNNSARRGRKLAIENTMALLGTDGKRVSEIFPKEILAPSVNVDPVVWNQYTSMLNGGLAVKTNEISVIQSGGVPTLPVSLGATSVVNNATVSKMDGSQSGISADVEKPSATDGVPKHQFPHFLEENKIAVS
Strand | E-score
AACCAGAG | -0.132
AAAAGGGA | 0.0942
AAATGATT | 0.361
CCGGTAGA | -0.0998
CGAAGGAC | -0.176
TAAACCTA | 0.145
AACGCACG | 0.0482
CGTATGCA | 0.112
AGATGGTA | 0.137
CATGCGCC | -0.273
CTCATCAA | 0.0807
ATCCGCGG | -0.224
CACTCAGC | -0.215
ACTAAGAG | -0.0612
CTGCGTGC | -0.253
GCCCATAC | -0.0322
GTTCCGAA | -0.112
AGTTACAA | 0.148
GGCTAGAA | -0.0767
TGAGACAA | -0.0386
CTTGCAAC | 0.0564
ATAGCGTA | 0.181
TCAATCCA | -0.0136
AACATCTT | 0.099
TCACCAAA | 0.247

Sample 5
Target: RNA binding protein fox-1 homolog 2, RRM domain, GST-SBP tag (RBFOX2, Homo sapiens, UniProt O43251-10, residues 100-194)
Technique: RNA Bind-n-Seq
Molecule type: RNA
Medium: in vitro
Tested at: 365 nM
Notes: natural RNA segment, single round, ends assumed
Baseline: no-protein control
Reading: higher = stronger binding
All sequences stand within: GGGAGUUCUACAGUCCGACGAUC … UGGAAUUCUCGGGUGCCAA
Construct (chain): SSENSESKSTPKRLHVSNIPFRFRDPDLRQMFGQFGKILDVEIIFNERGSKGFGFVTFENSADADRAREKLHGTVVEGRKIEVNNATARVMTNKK
Strand | RBNS enrichment (R)
GAGACUAAAGGAUGUUGAAGGCUACACAUUCAACCUUUUGUUAGGUGUUUCCUUUAAGCUACUCAGCUGUACCUUUUAAAUUAGUUCUUUUUCAACCAGUAUAUCACUAA | 0.396
AUUUCCCUAGAACCUUAAUGGUAGAAGGAAUUGCAAAGAAUCAAGUCCACCCUUCUCAUGUGACAGAUGGGGAAACUGAGGCCUUGAGAAGGAAAAAGGCUAAUCUAAGU | 0.508
CCGAAUCAGAAUCCCAUCUCACCAGGGCGAAAUUUUAAUUUAAAAACUUAAAAAGAGACUUUUCUAACUUCCCUGGUUUGCGGUGCUUUUAUUUCCGUUGGUGGGAAAAG | 0.485
UCUGGGGGUUCAGAUGGGUAGCACUAAGCCAGCUGGCCUAAAGAUGCAAUAAGUUCCUAGGUAGUCUACCCUUACCUUGAGGAAUGGGAAAAUGAACCUCAGCCCAUUAG | 0.421
CUUUGCAUCACUAUUAAAGAGCAGAAAGUUCUAGAAAUGAUCCCAGCCUCAUCCCCUAUACAGUUAGGAGCUCCCCACAUCUCUACCAAAACCCAGCACAUAAGUAUCUG | 0.692
GACCUGGACACUGGGCCUCAGCCCCUGGCCGUGUGGAAUCCAUGGGAUCCUCGGGACUCCCCAGACAGGCGUGUGUGAGUGUGUUCUGUCAUGCAGCCUCAGCCCAGGCU | 0.38
ACUGGAACUUGAACUGAUUCACAUCUCAUUUUUCCGUAAAAAUGAUUUCAGUAGCACAAGUUAUUUAAAUCUGUUUUUCUAACUGGGGGAAAAGAUUCCCACCCAAUUCA | 0.227
AGAGGUUGAUGAAUGGAAAUUCUUUCACUUCAUUAUAUGCAAGUUUUCAAUAAUUAGGUCUAAGUGGAGUUUUAAGGUUACUGAUGACUUACAAAUAAUGGGCUCUGAUU | 0.675
CCAGACAGAUUGAGAGAGAGUCACUUAAGCUGAGAGAGACUUAAGGGUGAGACUGGCGUGCAGGCGUGUGACGGUGUGUUUGGAGUAUUGCCAUUCCCAUCGCUGUUAGC | 0.712
CGUUGGUGAAGAACACACAUCGAUUCUGCACCUGGGGACCCAGAGCGAGAUGGGUUUGUUCGGUGCCAGCCGACCAAGAUUGACUAGUUUGUUGGACUUAAACGACGAUU | 0.403
CUGAAGGAUGGGCAACUGAUCACAUUAUUACUUAAUAGUUUUUUUUUUUCUUGCAGUGUGUGUGUGUGCUAUACCUUAAUGGGGAAGGGGGGGUCGAUAUGCAUUAUAUG | 3.36
UCCCGUCCAUUCCAGUCAAAUCUGGGCUCACUCACCCCAGCGAGCUCUCAAAUCCCUCUCCAACUGCCUAAGGCCCUUUGUGUAAGGUGUCUUAAUACUGUCCUUUUUUU | 0.757

Sample 6
Target: Histone acetyltransferase KAT6A, winged helix 2, GST fusion (KAT6A, Homo sapiens, UniProt Q92794, residues 85-181)
Technique: protein binding microarray
Molecule type: double-stranded DNA, one strand shown
Medium: in vitro
Tested at: not given
Notes: 8-mer, flanks averaged, mean of 2 arrays, mostly near background
Baseline: not given
Reading: higher = stronger binding
Target sequence (chain): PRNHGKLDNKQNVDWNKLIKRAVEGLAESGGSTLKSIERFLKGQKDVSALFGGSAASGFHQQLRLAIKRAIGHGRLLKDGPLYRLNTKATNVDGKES
Strand | E-score
TAGCAACA | 0.144
AAGAGGTG | -0.13
GACGGACC | 0.0771
CTAGCAGA | 0.0508
CTTCTCCC | 0.0948
AGAAGCTC | -0.121
GCGTCTAC | -0.038
ACTTGAAG | -0.0518
ATGTTGTA | 0.0439
CATATGAA | -0.0877
AACGACTC | -0.237
AATTCGCA | 0.117
GTGGTAAA | 0.074
CGCATTGA | 0.102
CTTGTGGC | 0.0217
ACTGCCGG | 0.172
CCCCACGA | 0.0755
AACGTCCA | -0.166
CCGGCCCG | 0.252
AAAGAAAC | 0.133
ATGGGTGC | -0.141
AATTTTTC | 0.0418
CCGTAATA | 0.0532
ACTACGGG | -0.105
CAAACCTA | 0.0318
